Measured values pooled from the literature.
Several values in a cell are separate wells, animals, samples, runs or records. ± gives the spread as reported.

SMILES	assay	system	setting	scale	measurement	value
CCc1ccc(CC/C=C/c2ccc3c(c2)C(=O)CC3)cc1	–	Sprague-Dawley rat, female	oral, 30 mg/kg/day, 14 days	–	CHCM	332 g/L
c1cc2ccc3cccc4ccc(c1)c2c34	–	fresh water	12 (unit not given), 20 °C, SSP sampler, 100 µm	–	log K(PDMS-water)	4.27 ± 0.01
CC[C@H](C)[C@H](NC(=O)[C@H](C)NC(=O)[C@H](CCCCN)NC(=O)[C@H](CC(C)C)NC(=O)[C@H](C)NC(=O)[C@@H](NC(=O)[C@H](Cc1c[nH]cn1)NC(=O)[C@H](CC(C)C)NC(=O)[C@@H](NC(=O)[C@@H](NC(=O)[C@H](CCCCN)NC(=O)[C@H](C)NC(=O)[C@H](C)NC(=O)[C@H](CO)NC(=O)[C@H](CCCCN)NC(=O)[C@H](Cc1ccccc1)NC(=O)[C@@H](NC(=O)[C@H](CCCCN)NC(=O)[C@H](CC(C)C)NC(=O)[C@H](Cc1ccccc1)NC(=O)[C@H](CO)NC(=O)[C@H](CCCCN)NC(=O)[C@H](Cc1c[nH]c2ccccc12)NC(=O)[C@H](CCCCN)NC(C)=O)[C@@H](C)O)[C@@H](C)O)C(C)C)[C@@H](C)O)C(=O)N[C@@H](CO)C(=O)N[C@@H](CO)C(N)=O	–	minipigs, both sexes, plasma	intravenous, 20 mg per animal	–	elimination half-life	39.6 ± 9 min
COc1ccnc(C(=O)N[C@H]2COC(=O)[C@H](Cc3ccccc3)[C@@H](OC(=O)C(C)C)[C@H](C)OC2=O)c1OCOC(=O)C(C)C	–	bovine fat	-18 °C	–	storage stability	9 months
CC(C)C[C@@H]1NC(=O)CNC(=O)[C@H](CC(N)=O)NC(=O)[C@H](CCCNC(=N)N)NC(=O)[C@H]([C@@H](C)O)NC(=O)[C@@H]2CSSC[C@@H]3NC(=O)[C@H]([C@@H](C)O)NC(=O)CNC(=O)CNC(=O)[C@H](C(C)C)NC(=O)[C@@H]4CSSC[C@H](NC(=O)[C@H](CCCCN)NC(=O)[C@H](CSSC[C@H](NC(=O)[C@H](C(C)C)NC(=O)[C@@H]5CCCN5C1=O)C(=O)NCC(=O)N[C@@H](CCC(=O)O)C(=O)N[C@@H]([C@@H](C)O)C(=O)N4)NC(=O)CNC(=O)[C@@H]1CCCN1C(=O)[C@H]([C@@H](C)O)NC(=O)[C@H](CC(N)=O)NC3=O)C(=O)N[C@@H](CO)C(=O)N[C@@H](Cc1c[nH]c3ccccc13)C(=O)N1CCC[C@H]1C(=O)N[C@@H](C(C)C)C(=O)N2	HPLC	ammonium bicarbonate 0.1 M	180 µM, 7 days, pH 9.0, 37 °C, deamidation stability	–	remaining peptide	79.5 ± 0.6%
N=C(N)NCCNC(=O)C1(Nc2ccccc2)CCN(Cc2ccccc2)CC1	–	Sprague-Dawley rat, male, urine	intravenous, 2.5 mg/kg, time not given	–	unchanged urinary recovery	17.3 ± 8.3%
CCOc1cc(Oc2ccc(C(F)(F)F)cc2Cl)ccc1[N+](=O)[O-]	–	rat, male	125 mg/kg, 4 days	–	final body weight	95.3 ± 2.1 g
Clc1ccc(Cl)c(-c2ccccc2Cl)c1	–	PDMS-water partitioning	PCB compilation	baseline: maximum over minimum K	literature range factor	2
CO[C@H]1C[C@@H]2CC[C@@H](C)[C@@](O)(O2)C(=O)C(=O)N2CCCC[C@H]2C(=O)O[C@H]([C@H](C)C[C@@H]2CC[C@@H](OC(=O)NCCOCCOCCOCCOCCOCCOCCOCCOCCC(=O)N3CCc4cc(Cn5nc(-c6ccc7oc(N)nc7c6)c6c(N)ncnc65)ccc4C3)[C@H](OC)C2)C[C@@H](O)[C@H](C)/C=C(\C)[C@@H](O)[C@@H](OC)C(=O)[C@H](C)C[C@H](C)/C=C/C=C/C=C/1C	phase 1 dose escalation	advanced solid tumour patients	intravenous, 10 mg weekly, any grade	–	any SAE incidence	25%
CC[C@H](C)[C@H](NC(=O)[C@H](Cc1ccccc1)NC(=O)[C@H](CCC(=O)O)NC(=O)[C@H](CCCNC(=N)N)NC(=O)[C@H](C)NC(=O)[C@H](C)NC(=O)[C@H](CCC(N)=O)NC(=O)[C@H](CCC(=O)O)NC(=O)[C@H](CCC(=O)O)NC(=O)[C@H](CC(C)C)NC(=O)[C@H](Cc1ccc(O)cc1)NC(=O)[C@H](CO)NC(=O)[C@H](CO)NC(=O)[C@@H](NC(=O)[C@H](CC(=O)O)NC(=O)[C@H](CO)NC(=O)[C@@H](NC(=O)[C@H](Cc1ccccc1)NC(=O)[C@@H](NC(=O)CNC(=O)[C@H](CCC(=O)O)NC(=O)[C@H](C)NC(=O)CCc1cnc[nH]1)[C@@H](C)O)[C@@H](C)O)C(C)C)C(=O)N[C@@H](C)C(=O)N[C@@H](Cc1c[nH]c2ccccc12)C(=O)N[C@@H](CC(C)C)C(=O)N[C@H](C(=O)N[C@@H](CCCNC(=N)N)C(=O)NCC(=O)N[C@@H](CCCNC(=N)N)C(=O)N[C@@H](CCCCNC(=O)COCCOCCNC(=O)COCCOCCNC(=O)CC[C@H](NC(=O)CCCCCCCCCCCCCCCCC(=O)O)C(=O)O)C(=O)NCC(=O)NCC(=O)N[C@@H](CO)C(=O)N[C@@H](CCCCNC(=O)[C@H](CCCCNc1c(NCCCCCN(O)C(=O)CCC(=O)NCCCCCN(O)C(=O)CCC(=O)NCCCCCN(O)C(C)=O)c(=O)c1=O)Nc1c(NCCCCCN(O)C(=O)CCC(=O)NCCCCCN(O)C(=O)CCC(=O)NCCCCCN(O)C(C)=O)c(=O)c1=O)C(=O)O)C(C)C [zirconium-89 labelled]	ex vivo gamma counting	Sprague-Dawley rat, male, colon	intravenous, 1 nmol, 24 h	–	tissue uptake	0.208 %ID/g and 0.216 %ID/g and 0.224 %ID/g and 0.188 %ID/g and 0.206 %ID/g
COc1cc2c(Oc3ccc4[nH]c(C)cc4c3F)ccnc2cc1OCC1(N)CC1	–	paediatric recurrent refractory sarcoma	concentration not given, whole group	–	grade 3 sinus arrhythmia	0%
CC(C)C[C@H](NC(=O)[C@H](CCCCN)NC(=O)OCC1c2ccccc2-c2ccccc21)C(=O)N[C@H](C(=O)N[C@@H](Cc1ccccc1)C(=O)N[C@@H](Cc1ccccc1)C(=O)N[C@@H](CCCCN)C(=O)NCC(=O)N[C@@H](Cc1ccccc1)C(=O)N[C@@H](C)C(=O)N[C@@H](Cc1c[nH]c2ccccc12)C(=O)N[C@@H](CC(N)=O)C(=O)N[C@H](C(=O)N[C@H]1CSSC[C@@H](C(=O)N[C@@H](Cc2c[nH]cn2)C(=O)N[C@@H](CCCNC(=N)N)C(=O)N[C@@H](CCCNC(=N)N)C(=O)N[C@@H](C)C(=O)N[C@@H](CC(N)=O)C(N)=O)NC(=O)[C@H](C(C)C)NC(=O)[C@H](CCCNC(=N)N)NC(=O)[C@H](C(C)C)NC(=O)CNC(=O)[C@H](CC(N)=O)NC(=O)[C@H](CCCNC(=N)N)NC(=O)[C@H](Cc2ccc(O)cc2)NC(=O)[C@H](C(C)C)NC1=O)C(C)C)C(C)C	–	ICR mouse	ip, 5 mg/kg	direction not given	stimulus response score	0
O=S(=O)(Nc1ccccc1)c1ccc(NC(=S)Nc2ccccc2)cc1	refers to: TBIL	female mouse, blood	oral, 80 mg/kg daily, 14 days	–	blood chemistry level	0.85 mg/dL
Clc1ccc(Cl)c(-c2cc(Cl)c(Cl)cc2Cl)c1	–	fresh water	20 °C, S30-1 sampler, 30 µm	–	log K(PDMS-water)	5.98 ± 0.04
CN[C@H]1CC[C@@H](c2ccc(Cl)c(Cl)c2)c2ccccc21	–	CD-1 mouse, male, plasma	intraperitoneal, 3 mg/kg	–	elimination rate constant	7.87e-05 s⁻¹
COc1ccc(-c2oc3cc(OC)cc(OC)c3c(=O)c2OC)cc1	HPLC	ethanol:butylene glycol 75:25	–	–	solubility	6228 ± 21 ppm
COc1cccc2c1CCCC2CCCN1CCN(C2CCCCC2)CC1 (stereo not drawn)	–	CD-1 mouse, male, lung	intraperitoneal, 30 mg/kg	–	Tmax	5 min
Cn1cncc1-c1c(F)cncc1NC(=O)c1c(N)nn2cc(F)cnc12	–	human patients	oral, up to 40 mg once daily	–	patients grade ≥3 Hyperkalemia	0%
CN1CC[C@@H](c2c(O)cc(O)c3c(=O)cc(-c4ccc(C(F)(F)F)cc4Cl)oc23)[C@@H]1CO	refers to: Lymphopenia	relapsed B-cell malignancies or AML	oral, 50 mg, grade 3-4, continuous dosing	–	patients with adverse event	12.5%
O=C1Nc2cc3[nH]nc(-c4ccncc4)c3cc2CN1Cc1ccccc1	CTCAE v4.03	advanced solid tumour patients	intravenous, 3.6 mg/kg, schedules 1/2	–	patients with constipation	0%
COc1ccc(C[C@@H]2NC(=O)[C@H]([C@@H](C)O)NC(=O)[C@@H]3[C@@H]4CCN3C(=O)[C@@H]3Cc5cn(c6ccc(F)cc56)CCCCCCN(Cc5ccc(cc5)CCNC(=O)[C@]5(C)CCCN5C2=O)C(=O)CCC(=O)N[C@@H](C)C(=O)N[C@H](CNC(=O)CCCCC[N+](C)(C)C)C(=O)N[C@@H](Cc2cccc(c2)CNC(=O)CO4)C(=O)N3)cc1	refers to: postural dizziness	human	dose not given	–	participants with adverse event	0%
NC(=O)[C@H]1CCN(c2ncnc(N)c2F)C[C@@H]1N1CCC[C@@H](Nc2cc(Cl)cc(C(F)(F)F)c2)C1=O	–	B-cell malignancy patients	oral, 82 mg twice daily, dose	–	grade ≥3 hypocalcaemia	0%
CCCCCCCCCCCC[N+](C)(C)Cc1ccccc1.[Br-]	–	zebrafish larvae	5 µM, intact compound, not light-degraded	–	mortality	~80%
COc1c(OCCCN2CCOCC2)ccc2c1N=C(NC(=O)c1cnc(N)nc1)N1CCN=C21	–	human, non-diabetic, raised baseline HbA1c	concentration not given, after treatment, baseline HbA1c 5.7 to 6.5%	–	HbA1c	6.3 ± 0.7%
O=C(Nc1ccccc1)C1CCN(C(=O)Oc2cccnc2)CC1	psychotropic effects VAS	healthy women	20 mg	baseline: pre-dose baseline, direction not given	change in Thoughts score	1
CCCCCOc1ccc(-c2ccc(-c3ccc(C(=O)N[C@H]4C[C@@H](O)[C@@H](O)NC(=O)[C@@H]5[C@@H](O)[C@@H](C)CN5C(=O)[C@H]([C@@H](C)O)NC(=O)[C@H]([C@H](O)[C@@H](O)c5ccc(O)cc5)NC(=O)[C@@H]5C[C@@H](O)CN5C(=O)[C@H]([C@@H](C)O)NC4=O)cc3)cc2)cc1	–	human, morbidly obese, plasma	intravenous, 100 mg single dose, BMI above 40 kg/m2	–	volume of distribution	47.2 ± 5.9 L
Clc1ccc(-c2ccccc2)cc1	–	Sprague-Dawley rats, female, serum	inhalation, 23 µg/rat, 4 h after exposure	–	chloride	86 ± 10 mmol/L

Excerpt of the above:
SMILES	assay	system	setting	scale	measurement	value
CC[C@H](C)[C@H](NC(=O)[C@H](Cc1ccccc1)NC(=O)[C@H](CCC(=O)O)NC(=O)[C@H](CCCNC(=N)N)NC(=O)[C@H](C)NC(=O)[C@H](C)NC(=O)[C@H](CCC(N)=O)NC(=O)[C@H](CCC(=O)O)NC(=O)[C@H](CCC(=O)O)NC(=O)[C@H](CC(C)C)NC(=O)[C@H](Cc1ccc(O)cc1)NC(=O)[C@H](CO)NC(=O)[C@H](CO)NC(=O)[C@@H](NC(=O)[C@H](CC(=O)O)NC(=O)[C@H](CO)NC(=O)[C@@H](NC(=O)[C@H](Cc1ccccc1)NC(=O)[C@@H](NC(=O)CNC(=O)[C@H](CCC(=O)O)NC(=O)[C@H](C)NC(=O)CCc1cnc[nH]1)[C@@H](C)O)[C@@H](C)O)C(C)C)C(=O)N[C@@H](C)C(=O)N[C@@H](Cc1c[nH]c2ccccc12)C(=O)N[C@@H](CC(C)C)C(=O)N[C@H](C(=O)N[C@@H](CCCNC(=N)N)C(=O)NCC(=O)N[C@@H](CCCNC(=N)N)C(=O)N[C@@H](CCCCNC(=O)COCCOCCNC(=O)COCCOCCNC(=O)CC[C@H](NC(=O)CCCCCCCCCCCCCCCCC(=O)O)C(=O)O)C(=O)NCC(=O)NCC(=O)N[C@@H](CO)C(=O)N[C@@H](CCCCNC(=O)[C@H](CCCCNc1c(NCCCCCN(O)C(=O)CCC(=O)NCCCCCN(O)C(=O)CCC(=O)NCCCCCN(O)C(C)=O)c(=O)c1=O)Nc1c(NCCCCCN(O)C(=O)CCC(=O)NCCCCCN(O)C(=O)CCC(=O)NCCCCCN(O)C(C)=O)c(=O)c1=O)C(=O)O)C(C)C [zirconium-89 labelled]	ex vivo gamma counting	Sprague-Dawley rat, male, colon	intravenous, 1 nmol, 24 h	–	tissue uptake	0.208 %ID/g and 0.216 %ID/g and 0.224 %ID/g and 0.188 %ID/g and 0.206 %ID/g
COc1cc2c(Oc3ccc4[nH]c(C)cc4c3F)ccnc2cc1OCC1(N)CC1	–	paediatric recurrent refractory sarcoma	concentration not given, whole group	–	grade 3 sinus arrhythmia	0%
